# Results of several laboratories.
# Numbered parts are unrelated; each lists some results of a single study.

# Sample 1
# Target: RING finger protein unkempt homolog, zinc fingers 1-6, GST-SBP tag (UNK, Homo sapiens, UniProt Q9C0B0, residues 30-357)
# Chain of UniProt Q9C0B0 (30-357, looked up): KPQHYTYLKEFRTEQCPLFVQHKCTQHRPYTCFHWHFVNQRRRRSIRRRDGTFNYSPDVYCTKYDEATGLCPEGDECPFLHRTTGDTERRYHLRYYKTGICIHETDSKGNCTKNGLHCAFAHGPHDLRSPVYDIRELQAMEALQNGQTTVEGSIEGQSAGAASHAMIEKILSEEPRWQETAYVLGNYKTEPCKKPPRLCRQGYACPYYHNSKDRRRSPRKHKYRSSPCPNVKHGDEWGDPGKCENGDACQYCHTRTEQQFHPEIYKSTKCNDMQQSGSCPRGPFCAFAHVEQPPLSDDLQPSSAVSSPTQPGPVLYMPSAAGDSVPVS
# Method: RNA Bind-n-Seq
# Molecule type: RNA
# Matrix: in vitro
# Tested at: not given
# Notes: RNA with constant flanks, human-mouse chimeric sites, ends assumed
# Reference: input RNA pool
# Reading: higher = stronger binding
# Constant ends, left off below: GGGAGUUCUACAGUCCGACGAUC … CAACAGAGGAUUGAGCAUCA
Strand,bound/input enrichment [ratio]
CUUCGGAAAAAAAAAUUACCUUUUCUGACAGUGCUUUCCCUCCCAUAGAUCCACGUUCAAGCUCAAAGAGCAAAGGCUUUGCACGGAGCUCAAACAUAAAAGAAAGAAAGAUUUCUGAGA,0.32
GGCUGCUGGUGACUGUCCUGGAGUGGCUGGAGUUCCCCCGGAACCUGGGCCAGACUAAUUUUAGAAAAUGCCAAGUAGGAAGUUUGUUGAGGGUGAAGUGGUCAGAGGCCGAUGGCCUGG,4.27
CGCUUGGAUGAGGCGGGUGUCACAGAUGAAGUGCUAGAUUCUGCCAUGCAAGCCUUCCUUCUGGAGGUUAUCGUUAAGCAUGGGGAGCCGGCACCUUAUUUAUGUAACAAAGAUCCGUUU,0.0746
GCUCUUGGGAAUGUAAUCAGCGCCUUGGGGGACAAGAGCAAGAGAGCCACCCAUGUCCCCUAUAGAGACUCUAAGCUGACAAGACUCCUACAGGAUUCCCUUGGGGGUAACAGCCAAACC,0.172
ACCUCCCCCUCCCGCCUGCUUUUUGAACCGCUUUUUGGAAAGUUUUUGGCGUUUCUUUUCCUUCCCCAGUUAGAAUUAUUACAGUUUCCCCCGCAAGGGUCUAUCGAAGGGCUUGACGGA,36.9
AAAGAACCUCUCUCUGAUGAAGAUGAGGACAGUGAUGAUGAUGUUGAACCCAUUUCUGAAUUUAGAUUUGUGCCCAGUGAUAAGUCAGCAUUGGAGGCGAUGUUCACAGCAAUGUGUGAG,2.22
ACCUCCCCCUCCCGCCUCACCCCACCCAAGAAAGAAAGAAAGUUUUUGGCGUUUCUUUUCCUUCCCCAGUUAGAAUUAUUACAGUUUCCCCCGCAAGGGUCUAUCGAAGGGCUUGACGGA,33.8
UUCAAAGAAAAGGGCAGCUGUGUCAUUUCAUAAGUAACUCUGGGGGAGGGAAAUUCUGUUCUUUUGUUUAAUUUUCCCCCAAAUGAAACCAACAUGCGUGUUGAAGAAGGAAGAAUGAAU,0.21
AAAGAACCUCUCUCUGAUGAAGAUGAGGAAGACAAUGAUGAUGUUGAACCUAUUACUGAAUUUCGAUUUGUGCCCAGUGAUAAGUCAGCAUUGGAGGCGAUGUUCACUGCAAUGUGCGAG,0.198
CUUAAUGUUAAUAUUUUUAAAGGAAGCAAGCUAAAAUGUCUGCUUUUGGUACAACACGCAUUAAUAAAAGGUUAAGUUUUGUUUUCCCUCCACUGAAUAUUUAACAUCUCAGAAAAAAAC,0.109
CCUGCUCAGAUCACCAUGAAAGUAAUCCAAGGCCUAUAUAGUGGGGUCACCACAGUGGAACUGGACACUUUGGCUGCUGAGACAGCCGCGACCUUGACUACUAAGCACCCUGACUAUGCC,0.0979

# Sample 2
# Target: Sal-like protein 4, full length isoform B (SALL4, Homo sapiens, UniProt Q9UJQ4-2, residues 1-616)
# Method: universal PBM
# Molecule type: double-stranded DNA, one strand shown
# Matrix: in vitro
# Tested at: not given
# Notes: 8-mer, flanks averaged, mean of replicates
# Reading: higher = stronger binding
Strand,E-score
GCTCCAAA,-0.177
GTGCATCA,0.0892
AGGACATA,0.181
GGCGGTCA,-0.263
GAGAGGCA,-0.228
CCCGCTAC,-0.168
AGGCCGCG,-0.15
CCCGCAAG,-0.346
AGCGTAGG,-0.127
ATCCTCTC,-0.117
GCTACGGA,-0.114
ACCAATAG,0.119
ACTACTTC,-0.0134
GTAGCAGA,0.0127
CGAACCCA,-0.178
GCGAAGCA,-0.122
ATTAACCG,0.0787
TACCAGTA,0.0961
CATCTGGA,-0.196
CGCACACC,-0.133

# Sample 3
# Target: PABPC1L2, full length, GST fusion (mouse, UniProt A0ABA7IW68)
# Method: RNAcompete
# Molecule type: RNA
# Matrix: in vitro
# Tested at: 20 nM
# Notes: 7-mer, probes averaged, single round
# Reference: mean of 7-mers
# Reading: higher = stronger binding
# Target sequence (chain): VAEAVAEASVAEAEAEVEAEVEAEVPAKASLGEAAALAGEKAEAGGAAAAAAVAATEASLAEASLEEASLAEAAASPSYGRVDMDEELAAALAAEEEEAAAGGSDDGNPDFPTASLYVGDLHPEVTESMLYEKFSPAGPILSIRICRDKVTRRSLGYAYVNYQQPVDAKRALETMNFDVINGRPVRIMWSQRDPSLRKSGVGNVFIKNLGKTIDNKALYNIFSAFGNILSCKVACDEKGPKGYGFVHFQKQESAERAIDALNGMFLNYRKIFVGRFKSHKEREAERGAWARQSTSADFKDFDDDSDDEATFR
Strand,7-mer Z-score
CGAAAAU,2.92
ACCUCGG,-0.231
GCCCUCA,-0.271
UCCAGCG,-0.168
CUAGGCU,-0.157
GGGUGCA,0.18
CUUUCAU,-0.307
UCCAAUG,-0.244
CAACCAG,0.108
ACCCGCG,-0.331
CGCACCU,-0.273
UCCGAUA,-0.0428
CUUCCGU,-0.476
GGAGCCG,-0.162
CAACAAU,0.191
GGCAGUC,-0.0464
UAGUCAA,-0.188
UCUAGGG,-0.15
CCACCCA,-0.171
CCAUGCA,-0.108
UCCAGUU,-0.396
CCGUAUA,-0.139
AUAGCCC,0.0787
GAUCUUG,-0.257
ACGAGAU,0.108

# Sample 4
# Target: Histone acetyltransferase KAT6A, winged helix 1, GST fusion (KAT6A, Homo sapiens, UniProt Q92794, residues 1-85)
# Method: protein binding microarray
# Molecule type: double-stranded DNA, one strand shown
# Matrix: in vitro
# Tested at: not given
# Notes: 8-mer, flanks averaged, mean of 2 arrays, mostly near background
# Reference: not given
# Reading: higher = stronger binding
# Residues (chain): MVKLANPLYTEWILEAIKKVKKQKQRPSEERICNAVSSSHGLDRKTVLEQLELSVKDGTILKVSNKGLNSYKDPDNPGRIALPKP
Strand,E-score
CCTTCAGA,-0.157
AACGAGCT,-0.23
TGGAAGAA,-0.188
GCATGTCC,0.102
CTGTACTA,-0.0518
CGGCTATA,0.287
CGCCTTCA,0.234
TACCGCCA,0.175
ACAAGTAG,-0.219
CAACCGTA,0.0238
CGTACACC,0.108
CCCGGTGC,0.245
AGTGTTGC,-0.0652
CGGGGTCA,0.328
CGATCAAA,-0.221
ACGTCCTC,-0.0421
GCGCTGCC,0.339
AGGCGTGG,0.041
CGTAATAC,0.225

# Sample 5
# Target: RNA binding protein fox-1 homolog 2, RRM domain, GST-SBP tag (RBFOX2, Homo sapiens, UniProt O43251-10, residues 100-194)
# Method: RNA Bind-n-Seq
# Molecule type: RNA
# Matrix: in vitro
# Tested at: 365 nM
# Notes: natural RNA segment, single round, ends assumed
# Reference: no-protein control
# Reading: higher = stronger binding
# Constant ends, left off below: GGGAGUUCUACAGUCCGACGAUC … UGGAAUUCUCGGGUGCCAA
# Residues (chain): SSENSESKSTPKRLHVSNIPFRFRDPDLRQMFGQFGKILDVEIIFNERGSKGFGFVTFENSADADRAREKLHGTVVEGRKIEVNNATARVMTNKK
Strand,RBNS enrichment (R)
GCCACAUUCUCCCAGAAGAGACAGCCACAGAUAGACUGGAACUCUCUGGCAUGUGAGUGCAUAUGUGUGACUGCCCCACUGUGGGACCUGCCACAUCCCUCCAUCCAUGU,0.411
UUGGGGGCGCCGGCUAGAAAAAGUAGGGUGCGGUGGCCAGGAGGGCCCCUGCCGCGCGGGGGGCUGGGUCUGGUUGAGUCGCUGCUUUCCCGAGGGCAGCGCAGGGAUCC,0.412
GCUCUAAGCUACCAAAGUUAUUCUGAAAGUAUGGGAACUGCUACAACUAACAAACAUUUGUUUCCAAGCCUGUCAUUAAGAGUCUGCAUCAAGAGAUUUGUCCUCCUUGG,1.04
UGUUGCCACCCUGUGCUGAGGCCUGAGGCCUCUUCCUCAGCUUUAUCUCCCUUUCCUUCACUCAAGGGCCAUUUCCCCAGUCCCUAUCUCCCCCAUCCCCUCCCGGCUUA,0.814
UUCCUCCGACCUGUGUAGGGUGUGGACCCAGUAAGGGCUGGGAAUUUCUUACUUUCCCACCCGCUUUCUCUCUGGUCUUCUCCCAGGCUGGAUCUGGGCGAAGUGUCACU,0.203
UGCCAAAACCAGCAAGUACACCGAAUCCUGAGACAAGGCAGUUCUUGUGACAGUGCCUUGGCCUCCUGGAAGCAGUCUGAGCCCUCCUGUUCCCAGGAUCACGAGAAACA,0.332
AGCCGUUGUGUAAUUAUGAGCUGGGCAGCCCAGGUAUAGUUAGUUUUAGGCUUGUAGGUUUACUUCCUAGUUUCUUUAAACACACCUGAUGGUAAAGAACACAUUGAAAG,0.609
GGUAAAUGCUAAACUUUUGUGUCUUUUGCCUUUUUAAAGGAAUUGUUAACAUUGGAAUUGAGGGUAUGUACAGAGAAGUUGGUGUCAACACCAUUUAAAAAGUCAUAUUU,0.419
GAAAGAUGUAGCAGCAUAUUCACUAUCCGUUAAUCCUUCUUUCUUUGAGGCUGGAACUUGCUCUCUCUGCCCCUAUUUCCUUGUAAAGAGGGAGCACAUUGACUUGGGAA,0.276
CAACUAUGCGGUUACCCUCUGAGGAUAAGUUCCUCAGCCCGGGGUUCUUUUAUAUGCUGUGUCCUUUUGGGGUUUGACCUUACCAAAGCAAAGAAACAAAAAACAAAAAA,0.451
UUUCAUUCACUAAUGUUAAGGUUAAUAUGUUUAAGAUCUUGUUUAAAUGAUGUUUCUUCUGCAACUGGCUACUCCUCUUAUAUUAAUGCAUACACUUUUGUAAAGAAGUA,0.666
CAUAUUUAAGAUUUGAGAUACCAAAAGAAUGUCCCUCAAGGGACAUUGCCAUUUAUUCUAGAAUUAAUCAUGCAUUUGAGGUAAUACAAAAUAUAGUUUUAUCAUGUUAG,0.298

# A few entries again (sample 3):
Strand,7-mer Z-score
UCCAGCG,-0.168
CUAGGCU,-0.157
GGGUGCA,0.18
CUUUCAU,-0.307
UCCAAUG,-0.244
CAACCAG,0.108
ACCCGCG,-0.331
CGCACCU,-0.273
UCCGAUA,-0.0428
CUUCCGU,-0.476
GGAGCCG,-0.162
CAACAAU,0.191
GGCAGUC,-0.0464
